Published values gathered from unrelated publications.
Each numbered part is a random draw from the data of one study; scales do not carry over between parts.

Block 1
Target: POU domain, class 5, transcription factor 1, POU domain (Pou5f1, Mus musculus, UniProt P20263, residues 131-289)
Chain of UniProt P20263 (131-289, looked up): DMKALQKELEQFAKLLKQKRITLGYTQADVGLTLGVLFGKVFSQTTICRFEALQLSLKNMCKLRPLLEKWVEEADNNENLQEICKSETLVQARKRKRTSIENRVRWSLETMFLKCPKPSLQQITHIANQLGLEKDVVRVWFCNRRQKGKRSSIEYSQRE
Technique: Spec-seq
Form: double-stranded DNA, one strand shown
Sample: in vitro
Concentration: not given
Setting: whole probe, mean of replicates
Reference: not given
Direction: lower = stronger binding
Quantity: relative binding energy
All sequences stand within: GAGTCGTCTCGTCAGCAC … CCGTAGAGCACTCAGGTC
ATGCCGCT: 0.786 ln ratio
ATGCCATG: 0.373 ln ratio
ATGCCAAA: 0.5 ln ratio
ATGGAGAT: -0.313 ln ratio
CCTTTAAT: 0.756 ln ratio
ATCCAGAT: 0.679 ln ratio
ATGCGAGA: 0.345 ln ratio
AGCTTAAT: 0.553 ln ratio
ATACGGAT: 0.42 ln ratio
ATGATGAT: 0.301 ln ratio
ATGCCCCG: 0.725 ln ratio
ATGCATGG: -0.386 ln ratio
ATGCCAGC: 0.734 ln ratio
ATGCCTTG: 0.751 ln ratio
ATGCCGAG: 0.86 ln ratio
CAGATAAT: 0.733 ln ratio
ATGATAAT: -0.701 ln ratio
ATGCCGGA: 0.718 ln ratio
AAAGTAAT: 0.359 ln ratio
ATGCCTAT: 0.472 ln ratio

Block 2
Target: Centromere-binding protein 1, full length, N-terminal tag (CBF1, Saccharomyces cerevisiae, UniProt P17106, residues 1-351)
Chain of UniProt P17106 (whole entry, looked up): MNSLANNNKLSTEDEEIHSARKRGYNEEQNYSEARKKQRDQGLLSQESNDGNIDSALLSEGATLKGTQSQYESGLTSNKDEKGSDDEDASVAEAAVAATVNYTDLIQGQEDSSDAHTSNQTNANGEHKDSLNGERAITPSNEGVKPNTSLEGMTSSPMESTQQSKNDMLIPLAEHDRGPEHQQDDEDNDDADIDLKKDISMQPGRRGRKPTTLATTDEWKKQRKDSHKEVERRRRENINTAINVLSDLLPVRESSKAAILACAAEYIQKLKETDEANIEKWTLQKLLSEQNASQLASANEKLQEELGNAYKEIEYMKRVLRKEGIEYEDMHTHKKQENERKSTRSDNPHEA
Technique: protein-binding microarray
Form: double-stranded DNA, one strand shown
Sample: in vitro
Concentration: 0.8 µM
Setting: whole 60-bp probe, no competitor
Direction: higher = stronger binding
Quantity: fluorescence intensity
All sequences stand within: … GTCTTGATTCGCTTGACGCTGCTG
GAAGAGGAAGCCCGTCACGTGGCTGCGCTGTCTTAG: 11700 a.u.
GAATATAAAAGTAGCCACATGGTTCATAACATCTAG: 620 a.u.
CTAATACAACAATGTCACCTTACACGAGCAGAGTTC: 566 a.u.
CCTAACTACTATAGTGGCGTGATATAGCTTCGTACA: 943 a.u.
GAACAATTCACTTAGTACGTGGTCTTGGAGTTATAG: 551 a.u.
CTAGCGTACACCTGTCATGCGTTCCTTAGTGCCTTC: 655 a.u.
GAAAACACGTGTACGCACGTAGCCAACGATTGATAG: 6430 a.u.
CTATAATATGGTCATCTGACCATGGTGACATAATTC: 6980 a.u.
CTAATCGAATGCTTGCGCATGCCAATGCACAGATTC: 503 a.u.
CTATGTTTTGCCCATCAGCTCAACTGTTTTAGGTTC: 527 a.u.
GAAAAGATCTGTCATCAGTTGTTTTGCGTGAAATAG: 566 a.u.
CTAGTAAAGAATTGCTACGTGGTGACTCAAAGTTTC: 548 a.u.
GAATCTCCGACCAGTCACGATTAATTAAATTGCTAG: 718 a.u.
GAATAGCGCGTATAGCACGTAGAGTAAAGTTATTAG: 517 a.u.
GAACTCTAGTCACGTGGTGCCTTTTTTTCCCATTAG: 25700 a.u.
CTACGCTTTACGGGTCACGCGCGGATTTTGACTTTC: 3070 a.u.
GAACTTCTTTTGGTGCACGTACCTTTTGGACTGTAG: 563 a.u.
GAATTAGTGCCCAAACACGGGATGTTTCAAGTATAG: 618 a.u.
CCTAACTACTATATGCACGTGCGATAGCTTCGTACA: 10000 a.u.

Block 3
Target: Interferon regulatory factor 5, full length, phosphomimetic (IRF5, Homo sapiens, UniProt Q13568-2, residues 1-514, K96S/S451D/S453D/S456D/S462D)
Technique: protein-binding microarray
Form: double-stranded DNA, one strand shown
Sample: in vitro
Concentration: 250 nM
Setting: 60-bp whole probe
Added: salmon DNA 0.4 mg/ml
Reference: random background probes
Direction: higher = stronger binding
Quantity: log fluorescence
All sequences stand within: GCCTAGCAC … GTCTTGATTCGCTTGACGCTGCTG
TCATATTTAGAACTTCTCACTGTGCTA: 0.693 z-score
GACGCTTTCGGGTTTCGGGACGTGCTA: 8.56 z-score
TCATCTGTCCCTCTGTGACTGTGCTAG: 0.0347 z-score
TTGTTTCTAATATTCTGCTTGTGCTAG: 1.8 z-score
TTAGGTCTCGGTCTCGGTTCGTGCTAG: 0.582 z-score
ACGAGTTTCCATTTTCTGAAGTGCTAG: 2.1 z-score
TTAGAACAGGGGTTTCGATTAGTGCTA: 6.13 z-score
GACGAACTGGGGTATCAAGACGTGCTA: -0.473 z-score
TTTGTCATCTATAATGGATATGTGCTA: 0.572 z-score
CCCAGGACCCTGGAACTGGCGTGCTAG: -0.659 z-score
TTAGGTTTCGGTTCCAGTTAGTGCTAG: 10.6 z-score
TTAGGTATCGACTTTCAGTTAGTGCTA: 6.18 z-score
GACGATTTCCTTTTCCTGACGTGCTAG: 0.742 z-score
ACCTGTTCCCTCATCAGGCTGTGCTAG: -0.148 z-score
CTTTTTTTCTTTTATTAGTGGTGCTAG: 1.71 z-score
GACGATCTCGGGACTGGAGACGTGCTA: -0.374 z-score
TCTGGGCCTCCATCATCTGTGTGCTAG: -0.447 z-score
TTAGAACTGAGTATAGATTAGTGCTAG: -0.139 z-score
AACACTCTTCTTTTGCTAATGTGCTAG: 0.999 z-score

Block 4
Target: RNA binding protein fox-1 homolog 2, RRM domain, GST-SBP tag (RBFOX2, Homo sapiens, UniProt O43251-10, residues 100-194)
Technique: RNA Bind-n-Seq
Form: RNA
Sample: in vitro
Concentration: 365 nM
Setting: natural RNA segment, single round, ends assumed
Reference: no-protein control
Direction: higher = stronger binding
Quantity: RBNS enrichment (R)
All sequences stand within: GGGAGUUCUACAGUCCGACGAUC … UGGAAUUCUCGGGUGCCAA
Residues (chain): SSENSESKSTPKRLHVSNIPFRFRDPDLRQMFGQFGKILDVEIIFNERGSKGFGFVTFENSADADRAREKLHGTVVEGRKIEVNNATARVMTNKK
UCCACUUGAUCCUUUUCUUUGUUUUAGUGUGAAUUUCAGCAGCUCCAUCUGUCUUCAUGAUUGUACUUGAGCAGUAUUAGCUGUAUGAGUUAAUUUUAUUCAGAUUGAAG: 0.408
CUGGGAGGAAAGCAUGGCCCAGCAUUCAGCAUGUGUUCCUUUCUGCAGUGGUUCUUAUCACCACCUCCCUCCCAGCCCCAGCGCCUCAGCCCCAGCCCCAGCUCCAGCCC: 6.52
GUUUAUAUGACUUUAAUAUCCACAGUGGUAAUCUAAUACCUUACCUCACAGGUUUUCAUUCUUUUGAACUCUGGUGCACUCCAUCUGUAAUCCAUGUCUAUAAUCUACCA: 0.333
CCGGCCCCCUCAUCACAAUCAGCUUUGAAGUCUGUAUUUUUUUAUAAUAAAAUGGACAAACUGUUAAGCGUGGGCCUCUCUGUUACAGGUGUGCUAGAUUUCCGACAGAG: 0.396
AGGAUUUCCUGUAAGGUUUUUUGCAACCUAUUUAGUUUUUGUCAUUUAAAAUGCCUAACUUCUUAGGUACACAAACCCAUGGCUUUGUGUACUAGAACCAGAGCAAUCCA: 0.281
GGAUCGCCCCCCCCUUCCCAGUUCUCCAUAUCAGGGUAGAAGAUCUAGGCACUACAUAUGUAAUUGGUAAAGAAAAGGCAUUUUCUUAAGAGUUAUAACUAUGUAAACAU: 0.348
CCCCACGAAAUUUAAAGAUGGGGAAAAAAAGAUGGUAUAAAAAUGGCUCUGGUUCAAUAAGCAGUCACCCAAAGUAAAGACUCUAUCUUGAAAGGCUUUUGGUGAAAAUG: 0.384
AGACUCGUGUUCUGAAGGAUACUCUCCUCCAUCACCCCUGCACCUUCCUCCGACCUGUGUAGGGUGUGGACCCAGUAAGGGCUGGGAAUUUCUUACUUUCCCACCCGCUU: 0.305

A few entries again (block 3):
TCATATTTAGAACTTCTCACTGTGCTA: 0.693 z-score
GACGCTTTCGGGTTTCGGGACGTGCTA: 8.56 z-score
TCATCTGTCCCTCTGTGACTGTGCTAG: 0.0347 z-score
TTGTTTCTAATATTCTGCTTGTGCTAG: 1.8 z-score
TTAGGTCTCGGTCTCGGTTCGTGCTAG: 0.582 z-score
ACGAGTTTCCATTTTCTGAAGTGCTAG: 2.1 z-score
TTAGAACAGGGGTTTCGATTAGTGCTA: 6.13 z-score
